Assay results gathered from unrelated publications.
Parts stem from different laboratories: compare values within a part only.

Sample 1 — method: RNAcompete; molecule type: RNA; matrix: in vitro; concentration: 20 nM; setting: 7-mer, probes averaged, single round; reference: mean of 7-mers; direction: higher = stronger binding; measurement: 7-mer Z-score
Target: PABPC1L2, full length, GST fusion (mouse, UniProt A0ABA7IW68)
Residues (chain): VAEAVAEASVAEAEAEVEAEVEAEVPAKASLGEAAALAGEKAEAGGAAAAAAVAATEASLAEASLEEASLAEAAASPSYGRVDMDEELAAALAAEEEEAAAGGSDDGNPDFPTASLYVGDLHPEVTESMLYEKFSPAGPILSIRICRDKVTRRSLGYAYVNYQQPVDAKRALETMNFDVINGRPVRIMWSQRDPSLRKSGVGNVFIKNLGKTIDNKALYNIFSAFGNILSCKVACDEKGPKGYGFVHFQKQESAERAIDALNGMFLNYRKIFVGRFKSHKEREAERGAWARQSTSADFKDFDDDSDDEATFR
UGUUUUG: -0.418
ACGAAUU: -0.0681
ACAAUAG: 0.166
GCGAGCG: 0.0623
CCUGCGG: -0.202

Sample 2 — method: aptamer microarray, sandwich; molecule type: DNA with 2'F-ANA; matrix: in vitro; concentration: 200 nM; added: Cy3 exosite-II aptamer, 400 nM; direction: higher = stronger binding; measurement: mean fluorescence intensity; oligonucleotide: GGTTGGTGTGGTTGG
Target: Prothrombin, mature alpha-thrombin (F2, Homo sapiens, UniProt P00734)
Setting: whole 15-mer aptamer, many near background
2'F-ANA at 1 4 6 8 10 12 13 14: 66.9 a.u.
2'F-ANA at 2 4 5 7 8 9 13: 55.3 a.u.
2'F-ANA at 2 3 5 7 9 10 11 15: 55.3 a.u.
2'F-ANA at 2 4 5 8 9 11 12 14 15: 48.6 a.u.
2'F-ANA at 1 5 7 8 10: 50 a.u.
2'F-ANA at 1 2 5 8 9 11 13 14: 44.3 a.u.
2'F-ANA at 1 5 8 10 11 12 13 14 15: 50.1 a.u.
2'F-ANA at 1 3 4 6 7 9 11 12 13 14 15: 66.8 a.u.

Sample 3 — method: protein binding microarray; molecule type: double-stranded DNA, one strand shown; matrix: in vitro; concentration: not given; reference: not given; direction: higher = stronger binding; measurement: E-score
Target: Histone acetyltransferase KAT6A, both winged helices, GST fusion (KAT6A, Homo sapiens, UniProt Q92794, residues 1-181)
Setting: 8-mer, flanks averaged, mean of 2 arrays, mostly near background
Construct (chain): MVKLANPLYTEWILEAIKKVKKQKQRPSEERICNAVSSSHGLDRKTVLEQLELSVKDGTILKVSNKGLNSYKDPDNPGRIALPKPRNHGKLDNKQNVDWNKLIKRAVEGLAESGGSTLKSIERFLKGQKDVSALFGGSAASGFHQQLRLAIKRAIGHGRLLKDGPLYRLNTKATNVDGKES
AGGATGAG: 0.0306
ACGACTGC: -0.0438
AGGTACTC: -0.0577
CATCACGG: 0.125
AGGAGGCG: 0.0712
ATCCCCCC: -0.185
GACTCACC: -0.0911
GCTTTAAC: -0.0175
GATCGCCA: -0.0585
CGGTAACC: 0.245

Sample 4 — method: Sort-seq; refers to: YFP reporter; matrix: E. coli; setting: PhoQ-PhoP variant library; added: 10 µM Mg2+; reference: high Mg2+ state; direction: higher = stronger signaling; measurement: fold induction
Molecule: PhoQ, residues 284 288 289 292 302 303 TNASYF
PhoP, residues 12 14 15 18 19 VGHWL (Escherichia coli, UniProt P23836): 4.49
PhoP, residues 12 14 15 18 19 LHHYF (Escherichia coli, UniProt P23836): 13.6
PhoP, residues 12 14 15 18 19 NFFVT (Escherichia coli, UniProt P23836): 7.24
PhoP, residues 12 14 15 18 19 TPWTL (Escherichia coli, UniProt P23836): 2.57

Excerpt of the above (sample 3):
AGGTACTC: -0.0577
CATCACGG: 0.125
AGGAGGCG: 0.0712
